Published values pooled from the literature.
Each numbered part is a random draw from the data of one study; scales do not carry over between parts. Changes are numbered by the printed parent chain.

Study 1
Target: CCND1, cyclin fold, Cln2 fusion (human)
Method: yeast growth competition, sequencing
Matrix: yeast
Notes: weak parent motif
Relative to: not given
Reading: higher = stronger binding
Parent: SLBP docking peptide (human); ARYKRKLLINDFG
Change | normalised enrichment score
RRYKRKLLINDFG [A1R] | -0.151
ARYKRKLLINDSG [F12S] | -0.487
ARYKRKLLIQDFG [N10Q] | -0.0298
ARYKRKLLFNDFG [I9F] | 0.138
ARYKRKDLINDFG [L7D] | -0.367
ARHKRKLLINDFG [Y3H] | 0.0627
PRYKRKLLINDFG [A1P] | 0.0834
ARYHRKLLINDFG [K4H] | 0.399
ARWKRKLLINDFG [Y3W] | 0.214
ARYKRKLLSNDFG [I9S] | 0.499
ARYKRKMLINDFG [L7M] | 0.216
ARYKRKLLINWFG [D11W] | 0.328
ARYKRGLLINDFG [K6G] | 0.106
ARYKRKLLENDFG [I9E] | 0.218
ARYKRKLLINDWG [F12W] | -0.44
ARYKRKLLIKDFG [N10K] | 0.0521
ARYKRKLLINDQG [F12Q] | -0.313
ANYKRKLLINDFG [R2N] | 0.0906

Study 2
Target: Hepatocyte nuclear factor 3-alpha (Foxa1, Mus musculus, UniProt P35582, residues 1-468, full length assumed)
Sequence of UniProt P35582 (whole entry, looked up): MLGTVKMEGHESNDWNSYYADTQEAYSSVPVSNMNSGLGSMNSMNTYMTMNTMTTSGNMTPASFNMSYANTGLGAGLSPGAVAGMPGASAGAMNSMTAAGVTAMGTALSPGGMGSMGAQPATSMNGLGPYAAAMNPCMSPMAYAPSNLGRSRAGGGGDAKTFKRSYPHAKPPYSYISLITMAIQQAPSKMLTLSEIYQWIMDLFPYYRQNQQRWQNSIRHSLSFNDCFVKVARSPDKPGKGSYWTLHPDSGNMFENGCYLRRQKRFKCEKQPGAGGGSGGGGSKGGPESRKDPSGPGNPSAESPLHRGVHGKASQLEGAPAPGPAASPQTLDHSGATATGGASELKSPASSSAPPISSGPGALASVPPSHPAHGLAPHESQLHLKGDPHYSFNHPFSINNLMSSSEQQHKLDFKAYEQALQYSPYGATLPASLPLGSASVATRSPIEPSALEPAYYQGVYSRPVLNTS
Method: EMSA with sequencing
Form: double-stranded DNA, one strand shown
Matrix: in vitro
Concentration: 10 and 20 nM
Notes: whole designed probe, mean of two concentrations, ends assumed
Relative to: negative control set to 0
Reading: higher = stronger binding
Constant ends, left off below: GTGAGCGGTGCCCATTGATGGGGAAC … TTTCACTGGGATCGTGGGGAC
Oligonucleotide | normalised bound fraction [ratio]
CTCCAGGGTAGTTGTCCTTCCTGTGGCTGCTCACTGATCCAGGCTACTTTGATCTTGTGACTCAAAGTTCAACAAAATGTGGATGCGTCATTTTATTTACACTTCTTACGAAATCAATGGCCAGAAGGCCTCATCCAGTTGCAAGAAGTTTGGGAAATGTAGCCTTCCATATTTACAGGAATAAATGAAAAAC | 0.33
TTATGATCTGAGTATATATAGTAAGTACCTCCCCTTTCAGGGTAAGGCAGTAGGTAATGGTGAAAAACAGGGAAGCAGGTGACTCAGGTTGAGTAAACAACACCAAGCATATCTGACTCAAGGAATGCTTCAGAGGCCAGGGGTGCATGCCTGTAATCCCAGCACCTTGGAAGGCTGACACAGGAGGATCACT | 0.406
GTAGGCCTCTGCTGCACCTGTCAACTCCACCTGGCGGCACAGAAGCTGCCAACGGTACGTCAGTGAGTTACCTTGGCCGTGTTCCAGTGAAACAGATTACACAGGCAGGTGGAAGTGACTGTGGTGATGGTTGCGTAACTCTGTGAACACACTGGAAACCATTGAATGTGTGTACTTGATCTGAATTGCGTGG | -0.0105
ATCTCTGGGTTCTTCCCTCTGAGAATCTCCCCCACCTCAGTTAAACTGCGCATCATAACTGCATGGCTATTTGAGATATTATTTTTAAATAACAAGATTACTTTGTGAAAGCTCTTAGTTAGGGAAACCAGAGGTCAGCATTGCAGTTAGATTACAGATCTGTGAAATGGCTTTGCCCTGCTACCCCCTTATT | -0.0359
CCTTATTTCTTTTTTGAAAATACAGTGACTTAGCGAGTGATACAGTATGAATGAAAGTTTTGAAGTTGGTTCATGGTGTATAAAGAGAAACAAAGTAATCTAAGCTCTTAATGGAAATACATACTTGGGACCAAACAACAGCCTATCTAAATGTTTTTTTTTGGTATTCATTTGGAAATTAATCAGATAATAA | 0.0102

Study 3
Target: ABI1, truncated, D143A, DHFR fusion (Arabidopsis thaliana)
Method: DHFR PCA, deep sequencing
Matrix: yeast
Notes: methotrexate growth selection, single substitutions
Added: (+)-ABA 0.032 µM
Relative to: wild-type fitted maximum
Reading: higher = stronger binding
Parent: PYL1, truncated, DHFR fusion (Arabidopsis thaliana); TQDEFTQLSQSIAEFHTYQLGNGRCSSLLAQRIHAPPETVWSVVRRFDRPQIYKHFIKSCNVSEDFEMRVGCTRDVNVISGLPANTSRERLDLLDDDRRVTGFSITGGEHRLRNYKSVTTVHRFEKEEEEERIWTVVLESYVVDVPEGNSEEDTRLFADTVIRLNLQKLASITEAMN; partner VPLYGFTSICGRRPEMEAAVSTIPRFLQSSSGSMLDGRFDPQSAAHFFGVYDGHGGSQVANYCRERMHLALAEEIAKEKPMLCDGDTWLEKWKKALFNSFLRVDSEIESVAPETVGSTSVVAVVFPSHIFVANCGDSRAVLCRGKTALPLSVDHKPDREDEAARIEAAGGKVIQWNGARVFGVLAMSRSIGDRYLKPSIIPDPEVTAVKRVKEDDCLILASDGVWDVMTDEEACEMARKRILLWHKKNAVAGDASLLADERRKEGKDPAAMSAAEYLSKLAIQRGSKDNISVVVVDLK
Change | relative binding score [%]
A170D | 3.38
S104P | -3.81
T154I | 16.8
I52L | 41.1
S150N | 15.6
G21D | 23.7
S140G | 6.58
Q19R | 23.7
T154W | -7.04
T135R | -3.82
F103D | 4.99
V62G | -1.46
V44M | 3.86

Study 4
Target: Interferon regulatory factor 7, full length, phosphomimetic (IRF7, Homo sapiens, UniProt Q92985, residues 1-503, S101K/S471D/S472D/S475D/S476D/S477D/S483D/S484D/S487D)
Method: protein-binding microarray
Form: double-stranded DNA, one strand shown
Matrix: in vitro
Concentration: 250 nM
Notes: 60-bp whole probe
Added: salmon DNA 0.4 mg/ml
Relative to: random background probes
Reading: higher = stronger binding
Constant ends, left off below: GCCTAGCAC … GTCTTGATTCGCTTGACGCTGCTG
Residues (chain): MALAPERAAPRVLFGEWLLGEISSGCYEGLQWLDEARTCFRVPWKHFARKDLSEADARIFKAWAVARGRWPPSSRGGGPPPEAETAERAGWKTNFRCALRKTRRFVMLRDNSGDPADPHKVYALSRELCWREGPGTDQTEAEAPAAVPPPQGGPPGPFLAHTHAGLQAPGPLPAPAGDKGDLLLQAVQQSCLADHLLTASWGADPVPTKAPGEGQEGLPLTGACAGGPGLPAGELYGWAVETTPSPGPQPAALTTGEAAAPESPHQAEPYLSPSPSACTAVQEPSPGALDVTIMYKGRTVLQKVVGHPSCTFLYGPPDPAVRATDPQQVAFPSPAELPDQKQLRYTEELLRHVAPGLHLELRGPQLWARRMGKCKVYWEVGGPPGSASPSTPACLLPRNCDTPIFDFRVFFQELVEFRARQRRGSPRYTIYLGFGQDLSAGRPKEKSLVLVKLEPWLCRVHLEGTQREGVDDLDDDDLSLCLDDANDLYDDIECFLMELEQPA
Oligonucleotide | log fluorescence [z-score]
TTAGGACTGGACAATGGGTTAGTGCTA | -0.434
TCACCTTTGCCTCCAGGACTGTGCTAG | 0.122
GACGGACTGGTTTTCGGGACGTGCTAG | 0.361
GTGACTCTGAACCTTCAGCTCGTGCTA | 0.243
TCAATGATTTTTTTCATACTGTGCTAG | 0.152
GACGGACTAGGGTATCGGGACGTGCTA | 0.0396
TTAGGTTTCGGTCTCGGTCAGTGCTAG | 7.6
TTAGGTATCCTTCTACTTTAGTGCTAG | 0.00989
TTAGATTCCAGTTGCGATTAGTGCTAG | 4.29
TTAGATACCAGTCTCGATTAGTGCTAG | 1.81
GACGGACTGGACAGTGGGGACGTGCTA | -0.821
TTCTGATCCATTTTGGTTTTGTGCTAG | 0.49
AACGATGCAAGTGCCCTTCGGTGCTAG | -0.522
TTACGTATCCTTATCCTTTAGTGCTAG | 0.745
GACGGTCTCGGTCTCGTGACGTGCTAG | 0.65
TTTCGTATCTTCATTGTCATGTGCTAG | 5.16
TTAGGTTTCGGACTGGGTCAGTGCTAG | 3.65
TTAGATATCAGTTTCGATAAGTGCTAG | 4.06
TTAGGTTTCGTCTATCGGTTAGTGCTA | 4.65

Excerpt of the above (study 1):
Change | normalised enrichment score
ARYKRKLLINDSG [F12S] | -0.487
ARYKRKLLIQDFG [N10Q] | -0.0298
ARYKRKLLFNDFG [I9F] | 0.138
ARYKRKDLINDFG [L7D] | -0.367
ARHKRKLLINDFG [Y3H] | 0.0627
PRYKRKLLINDFG [A1P] | 0.0834
